# Experimental data collected from several papers.
# Each line is one published result; not all experiments were run side by side. ± gives the spread as reported.
# Target: Kappa-type opioid receptor (OPRK1, Homo sapiens, UniProt P41145)
# Chain of UniProt P41145 (whole entry, looked up): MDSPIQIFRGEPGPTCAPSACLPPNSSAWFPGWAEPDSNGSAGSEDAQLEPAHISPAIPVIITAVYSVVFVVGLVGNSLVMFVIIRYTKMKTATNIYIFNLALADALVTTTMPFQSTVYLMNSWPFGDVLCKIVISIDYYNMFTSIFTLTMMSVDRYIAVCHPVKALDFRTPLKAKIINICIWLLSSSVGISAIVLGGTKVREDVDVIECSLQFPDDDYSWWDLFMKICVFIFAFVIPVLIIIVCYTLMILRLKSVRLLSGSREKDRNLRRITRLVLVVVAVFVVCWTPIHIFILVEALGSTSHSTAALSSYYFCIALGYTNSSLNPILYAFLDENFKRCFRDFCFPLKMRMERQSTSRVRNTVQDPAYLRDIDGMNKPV
Compound,test,system,setting,endpoint,value
CC(C)C[C@H](NC(=O)[C@H](Cc1cccc2ccccc12)NC(=O)CNC(=O)[C@H](NC(=O)[C@@H](N)Cc1ccc(O)cc1)[C@H](C)O)C(=O)N[C@@H](CO)C(N)=O,"GTPγS binding, agonist, radiometric",,cell membranes,EC50,> 1000 nM
Cc1cc(O)cc(C)c1CC(N)C(=O)NC1CCNc2c(Br)cc(Cc3ccccc3)cc21 (stereo not drawn),"GTPγS binding, agonist, radiometric",,cell membranes,EC50,310 nM
Cc1cc(O)cc(C)c1CC(N)C(=O)NC1CCNc2ccc(Cc3ccoc3)cc21 (stereo not drawn),"GTPγS binding, agonist, radiometric",,cell membranes,EC50,> 1000 nM
Cc1cc(O)cc(C)c1CC(N)C(=O)NC1CCNc2c(C)cc(Cc3ccccc3)cc21 (stereo not drawn),"GTPγS binding, agonist, radiometric",,cell membranes,EC50,760 nM
CC(=O)N1CCC(NC(=O)C(N)Cc2c(C)cc(O)cc2C)c2cc(CN3CCc4ccccc4C3)ccc21 (stereo not drawn),"GTPγS binding, agonist, radiometric",,cell membranes,EC50,160 nM
CC(C)[C@H]1CC[C@H](N2CC[C@@](C)(c3cccc(O)c3)[C@@H](C)C2)CC1,"GTPγS binding, agonist, radiometric",,,EC50,> 10000 nM
Cc1cc(O)cc(C)c1CC(N)C(=O)NC1CCNc2c(F)cc(Cc3ccccc3)cc21 (stereo not drawn),"GTPγS binding, agonist, radiometric",,cell membranes,EC50,370 nM
Cc1cc(O)cc(C)c1CC(N)C(=O)NC1CCNc2ccc(CN3CCc4ccccc4C3)cc21 (stereo not drawn),"GTPγS binding, agonist, radiometric",,cell membranes,EC50,90 nM
CC[C@H](C)[C@H](NC(=O)[C@@H](N)Cc1ccc(O)cc1)C(=O)N[C@@H](Cc1ccccc1)C(=O)N[C@@H](CC(N)=O)C(=O)N[C@@H](CC(C)C)C(=O)O,"[3H]EKC binding displacement, whole-cell radioligand binding",DU-145,added: DADLE,IC50,0.0287 ± 2.2e-14 nM

# For quick reference, copied from above:
Compound,test,system,setting,endpoint,value
Cc1cc(O)cc(C)c1CC(N)C(=O)NC1CCNc2c(C)cc(Cc3ccccc3)cc21 (stereo not drawn),"GTPγS binding, agonist, radiometric",,cell membranes,EC50,760 nM
